Published values gathered from unrelated publications.
Each numbered part is a random draw from the data of one study; scales do not carry over between parts. Changes are numbered by the printed parent chain.

Series 1
Target: Centromere-binding protein 1, full length, His-tagged (CBF1, Saccharomyces cerevisiae, UniProt P17106, residues 1-351)
Chain of UniProt P17106 (whole entry, looked up): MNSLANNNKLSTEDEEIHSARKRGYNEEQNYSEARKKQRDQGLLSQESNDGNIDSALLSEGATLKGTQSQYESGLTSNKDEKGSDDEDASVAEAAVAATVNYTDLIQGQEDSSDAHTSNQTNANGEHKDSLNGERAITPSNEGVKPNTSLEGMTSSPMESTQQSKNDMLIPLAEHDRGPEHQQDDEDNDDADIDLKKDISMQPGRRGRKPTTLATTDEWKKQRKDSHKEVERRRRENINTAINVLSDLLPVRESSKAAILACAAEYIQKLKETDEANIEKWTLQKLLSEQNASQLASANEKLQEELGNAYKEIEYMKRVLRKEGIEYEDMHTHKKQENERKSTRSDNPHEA
Technique: competition protein-binding microarray
Form: double-stranded DNA, one strand shown
Sample: in vitro
Tested at: 2 µM
Setting: whole 60-bp probe, lowest competitor level
With: Pho4 competitor, 0.05 µM
Direction: higher = stronger binding
| Strand | fluorescence intensity [a.u.] |
| --- | --- |
| AAAGCGGTAATTTGTCACATCACTTCACATATCTATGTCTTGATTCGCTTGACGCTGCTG | 83 |
| CTTCTGTAAATTTGACCTGTGGGTGGACGCGCCCCGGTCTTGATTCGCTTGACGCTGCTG | 66.2 |
| CTTTCCCGATCTTGCCGAGTGGGTGTAGCACATTTGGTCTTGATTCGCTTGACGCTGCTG | 58.8 |
| TTTCTCACAAGACTGCTCGTGGTGAGGCCGCTTTGGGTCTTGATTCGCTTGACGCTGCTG | 79.2 |
| AAGCTAAGCTCGAAGGACGTGCTAAGACATACGAATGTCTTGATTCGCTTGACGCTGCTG | 70.4 |
| TTGCTGGTTACCCTGCATGTGATATTTGATTACATAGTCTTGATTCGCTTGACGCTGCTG | 432 |
| CAGCCACTGGTGCTAAACGTGCTAAATTCAGAAAGAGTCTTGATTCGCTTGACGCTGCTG | 85.9 |
| AAAGCGGTAATTTTTCACGTGAATTCACATATCTATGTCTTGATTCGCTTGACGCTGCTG | 907 |
| TTCCTGTAACACTGGCACGCTTGAAGTGAGCATAAAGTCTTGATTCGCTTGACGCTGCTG | 71.4 |
| TGCGCAACAACTTGCGCTGTGGGTGTATGTCTAGAAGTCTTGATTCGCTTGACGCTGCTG | 57.9 |
| CGTACGGCAATAATCCTCGTGCAAAAATCTCTAAGAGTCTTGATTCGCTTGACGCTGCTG | 169 |
| AAAGCGGTAATTTGTCACTCTACTTCACATATCTATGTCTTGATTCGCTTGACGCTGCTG | 77.9 |
| TTGCTCAACGTTAAAGACGTGCTTTTTTGACTGACTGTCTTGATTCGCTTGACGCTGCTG | 66.6 |
| GCGCGAAGTTTTGCTGACGTGCCAGTACCTGGGCCAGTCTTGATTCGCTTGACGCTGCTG | 61.3 |

Series 2
Target: RNA binding protein fox-1 homolog 2, RRM domain, GST-SBP tag (RBFOX2, Homo sapiens, UniProt O43251-10, residues 100-194)
Technique: RNA Bind-n-Seq
Form: RNA
Sample: in vitro
Tested at: 365 nM
Setting: natural RNA segment, single round, ends assumed
Baseline: no-protein control
Direction: higher = stronger binding
Target sequence (chain): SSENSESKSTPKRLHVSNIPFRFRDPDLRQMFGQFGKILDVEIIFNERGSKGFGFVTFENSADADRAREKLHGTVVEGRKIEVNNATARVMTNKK
| Strand | RBNS enrichment (R) |
| --- | --- |
| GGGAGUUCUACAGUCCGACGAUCAGCUCACACUGUAAUCACAGUGACUCAGGAGGCUGAGGUGAGAGGAUUCCUUGAGGCCAGGGUUCGAGACCAACCUUGGGCAACAUAGCAAGACCCCAUUUCUUAAAAAAUGGAAUUCUCGGGUGCCAA | 0.315 |
| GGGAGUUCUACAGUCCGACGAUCCAGUGUCUGUAGGAGUCGGCCUCACAAGCUGAUGAAGCAGCUGUACGCCUAGUAGAGCUCGGUGGUGACGCUCCCUUACUCUUAGAUGAAUCAGUAGCUGUGAAAAUAACUGGAAUUCUCGGGUGCCAA | 0.31 |
| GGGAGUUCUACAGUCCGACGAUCUACCAUUUCAUGGUGGUCGUUGGGUCCGCCUAAAGGAUUUGAGCGUUUGCCAUUGCAAGCAUAGUGCUGUGUCAUCCUGGUCCAUGUAGGACUGGUGCUAACCACCUGCCUGGAAUUCUCGGGUGCCAA | 0.221 |
| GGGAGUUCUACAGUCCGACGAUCUCUUGCCUGCAGUGUGUGUGGCAGCAGCCCAUGUGCCUUUACCUGUUGUCAAACUUGCAAGCAUUUAUUUGUCUUUAUGACUGUCAUGGGGACUGAGGUUCUUCAGAGAAUGGAAUUCUCGGGUGCCAA | 0.631 |
| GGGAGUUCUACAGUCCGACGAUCAUAGAAUUUCUCCAUUGAUGAAUCUCUAGUAUGUGUGUAUACUUUAUUUACCCAUACGUAUAUUUUAUGACCAUGAGCUAAGUUGUUAUUUCUUUCAUUCAUAUCCCUGCUGGAAUUCUCGGGUGCCAA | 0.835 |
| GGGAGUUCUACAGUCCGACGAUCAUCCAGGUAAGACCGGAUUGAAGCUUUGAAAUUAGACUAACAAAGCUCCAGACAGCAAGAGCCCAGGUGCACUGCUCACACCCCCACCUGCAUUUUGAAGUCAUAUUAUUUGGAAUUCUCGGGUGCCAA | 0.726 |
| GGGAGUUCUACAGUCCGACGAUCCCAGAACAGGCCACUCAUUUAGAAUUCUAGUGUUUCAAAACACUUUUGUGUGUUGUAUGGUCAAUAACAUUUUUCAUUACUGAUGGUGUCAUUCACCCAUUAGGUAAACAUGGAAUUCUCGGGUGCCAA | 0.223 |
| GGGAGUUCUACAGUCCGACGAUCAUGGAACUCUCCAGUGUUCCUAUAAAAUAGUAGUUCCAGCUAAAUAAACCUACUGUACUCAGUGCUUCUCCAAGAAUACUACAACGGAUGGUUGUACAGUUUGAUUGGAGUGGAAUUCUCGGGUGCCAA | 0.526 |

Series 3
Target: JUND, bZIP domain (human)
Technique: DHFR protein complementation
Sample: yeast
Setting: single substitutions, most at no-binding floor
Baseline: wild-type JUN-FOS pair
Direction: higher = stronger binding
Parent: JUN, bZIP domain (human); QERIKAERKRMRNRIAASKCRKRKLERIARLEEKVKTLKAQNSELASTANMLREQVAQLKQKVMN
| Change | binding fitness |
| --- | --- |
| L59P | -1.51 natural log |
| L38A | -1.35 natural log |
| Q55D | -1.39 natural log |
| K39P | -1.42 natural log |
| L31D | -1.2 natural log |
| L52N | -1.49 natural log |
| Q55P | -1.42 natural log |
| T48F | -1.22 natural log |
| L31I | -1.47 natural log |
| K39W | -1.21 natural log |
| A57P | -1.4 natural log |
| T48G | -1.36 natural log |
| L31P | -1.44 natural log |
| A49Q | -1.27 natural log |
| N42K | -1.21 natural log |

Series 4
Target: Ras GTPase-activating protein-binding protein 1, C-terminal RGG region (G3BP1, Homo sapiens, UniProt Q13283)
Chain of UniProt Q13283 (whole entry, looked up): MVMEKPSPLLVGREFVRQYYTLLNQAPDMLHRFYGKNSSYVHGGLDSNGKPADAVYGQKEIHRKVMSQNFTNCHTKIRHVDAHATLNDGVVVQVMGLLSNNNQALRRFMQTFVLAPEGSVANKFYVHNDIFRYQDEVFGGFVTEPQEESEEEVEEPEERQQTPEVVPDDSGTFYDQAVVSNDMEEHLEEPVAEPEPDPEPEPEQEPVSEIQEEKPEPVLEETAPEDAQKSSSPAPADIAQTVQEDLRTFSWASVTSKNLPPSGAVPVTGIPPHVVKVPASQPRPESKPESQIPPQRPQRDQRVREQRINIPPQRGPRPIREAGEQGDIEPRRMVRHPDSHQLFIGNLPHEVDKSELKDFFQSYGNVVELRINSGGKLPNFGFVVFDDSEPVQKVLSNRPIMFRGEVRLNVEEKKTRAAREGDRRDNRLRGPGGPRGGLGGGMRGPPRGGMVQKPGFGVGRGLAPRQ
Technique: RNA Bind-n-Seq
Form: RNA
Sample: in vitro
Tested at: 1 µM
Setting: whole 134-nt RNA, ends assumed
With: 150 mM KCl
Baseline: input library
Direction: higher = stronger binding
| Strand | log2 enrichment |
| --- | --- |
| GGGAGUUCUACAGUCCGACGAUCGUCCUGUGCUACACAUCGUAUGUACCGAAUCGGUUUUUGGGGUUUUUGGGUUUUUGGGGAAAGUAUUAUGUUACGCCGUUCGGAUCUGCAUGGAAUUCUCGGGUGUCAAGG | -0.624 |
| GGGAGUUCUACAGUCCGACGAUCACCAUGCAGGUGGGCAUUUUUGGGAAGUGGGGCAAGGGGGGGAUAGGGAGGGGGGUAACACUUUGGGAACAGGUGGUCCCAGGUCGUUUCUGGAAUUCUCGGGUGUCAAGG | -1.31 |
| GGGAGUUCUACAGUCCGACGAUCCAAGUCCUGUGCUACACAUCGUAUGUACCGAAUCGGGGCCCGGGCCCGGCCCGGGGAAAGUAUUAUGUUACGCCGUUCGGAUCUGCACUUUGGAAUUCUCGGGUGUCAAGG | -2.33 |
| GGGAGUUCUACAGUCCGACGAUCUCAAGUCCUGUGCUACACAUCGUAUGUACCGAAUCGGCCGGGCCGGGGCCGGGGAAAGUAUUAUGUUACGCCGUUCGGAUCUGCACUUCCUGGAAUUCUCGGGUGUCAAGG | -1.56 |
| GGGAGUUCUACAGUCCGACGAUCCACAGACAACACGCACCCACACAGACACAGAAGGAAGGGGUUGGGAUGGGGACAGGGUGCACAGCAGGGCGGGGUAGGACCCCAGCCCCUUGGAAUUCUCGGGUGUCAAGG | -0.13 |
| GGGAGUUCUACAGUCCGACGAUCUCAAGUCCUGUGCUACACAUCGUAUGUACCGAAUCGGUUUGGGGUUUGGUUUGGGAAAGUAUUAUGUUACGCCGUUCGGAUCUGCACUUCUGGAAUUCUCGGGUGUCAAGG | -0.988 |
| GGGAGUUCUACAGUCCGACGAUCGCAGGAAGUAAAAACAAAUGGAAAUGCUUCGGAUAAAGGCAGGGGUGGGGGUUGCUAAGGAAAGGGUGGGAUGGGAGUGGGUAAAGAGUUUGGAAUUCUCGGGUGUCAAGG | 1.95 |
| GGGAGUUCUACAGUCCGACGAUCUUGAUGCCCCAGAUGUGGAUGUUCAUGGCCCAGACUGGCACCUGAAGAUGCCUAAGAUGAAAAUGCCCAAGUUCAGCAUGCCUGGCUUCAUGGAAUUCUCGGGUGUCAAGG | -0.436 |
| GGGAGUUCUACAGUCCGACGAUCGUCCUGUGCUACACAUCGUAUGUACCGAAUCGGCCCCCCGGGCCCCCCGGCCCCCCGGGAAAGUAUUAUGUUACGCCGUUCGGAUCUGCAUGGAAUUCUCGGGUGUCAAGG | -1.23 |

Excerpt of the above (series 1):
| Strand | fluorescence intensity [a.u.] |
| --- | --- |
| CAGCCACTGGTGCTAAACGTGCTAAATTCAGAAAGAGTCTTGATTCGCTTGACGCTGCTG | 85.9 |
| TTGCTGGTTACCCTGCATGTGATATTTGATTACATAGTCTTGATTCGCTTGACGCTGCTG | 432 |
| CTTCTGTAAATTTGACCTGTGGGTGGACGCGCCCCGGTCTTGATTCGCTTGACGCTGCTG | 66.2 |
| TTGCTCAACGTTAAAGACGTGCTTTTTTGACTGACTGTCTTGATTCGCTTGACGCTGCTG | 66.6 |
